Results pooled from the literature.
Compare with care: the assays were run in different laboratories. Numbers after ± are the reported error.

OCC1OC(n2cnc3c(NCC(c4ccccc4)c4ccccc4)ncnc32)C(O)C1O (stereo not shown) — log kIAM (IAM chromatography; pH 7.4): 2.31
COc1cc2oc(-c3ccccc3)cc(=O)c2c(O)c1O — log protonation constant (spectrophotometric titration; methanol/water 80/20 w/w; 25.0 °C, ionic strength 0.1 M, 6-OH group): 9.75
CC[P+](c1ccccc1)(c1ccccc1)c1ccccc1 — log P (shake-flask, HPLC; 1-octanol/water): -1.36 ± 0.09
COc1cc(OC)cc(C2=C3C(C)=C(I)C(/C=C/c4c[nH]c5ccc([N+](=O)[O-])cc45)=[N+]3[B-](F)(F)n3c(/C=C/c4c[nH]c5ccc([N+](=O)[O-])cc45)c(I)c(C)c32)c1 — log molar absorptivity (dichloromethane): 4.45 M⁻¹ cm⁻¹
C[N+]1(C)CC[NH2+][Pt-2]1([OH])([Cl])([Cl])[O]C(=O)CCC(=O)OCCOC(=O)CCC(=O)[O][Pt-2]1([OH])([Cl])([Cl])[NH2+]CC[N+]1(C)C — log kw (RP-HPLC, C18 column; methanol/aqueous formic acid; 25 °C, extrapolated to 100% water): 1.98 ± 0.07
COc1cc(OC)cc(C2=C3C(C)=C(I)C(C)=[N+]3[B-](F)(F)n3c(/C=C/c4c[nH]c5ccccc45)c(I)c(C)c32)c1 — log molar absorptivity (THF): 4.76 M⁻¹ cm⁻¹
CCNC(=O)C1OC(n2cnc3c(NCC(c4ccccc4)c4ccccc4)nc(NCCc4ccc(CCN)cc4)nc32)C(O)C1O (stereo not shown) — log kIAM (IAM chromatography; pH 7.4): 3.35
COc1cc(OC)cc(C2=C3C(C)=C(I)C(/C=C/c4c[nH]c5ccccc45)=[N+]3[B-](F)(F)n3c(/C=C/c4c[nH]c5ccccc45)c(I)c(C)c32)c1 — log molar absorptivity (THF): 4.62 M⁻¹ cm⁻¹
O=C1c2ccccc2NC(c2ccc(Cl)c([N+](=O)[O-])c2)N1/N=C/c1ccc(Cl)c([N+](=O)[O-])c1 (stereo not shown) — log k (RP-HPLC): 1.14
COc1cc(OC)cc(C2=C3C(C)=C(I)C(C)=[N+]3[B-](F)(F)n3c(/C=C/c4c[nH]c5ccc([N+](=O)[O-])cc45)c(I)c(C)c32)c1 — log molar absorptivity (THF): 4.43 M⁻¹ cm⁻¹
COC(=O)CN1CCN(CC(=O)OC)CCN(Cc2cc(-c3nc4ccccc4s3)cc(OC)c2O)CC1 — log D (octanol/water; 64Cu complex): 0.72 ± 0.02
COc1cc(OC)cc(C2=C3C(C)=C(I)C(/C=C/c4cccs4)=[N+]3[B-](F)(F)n3c(/C=C/c4cccs4)c(I)c(C)c32)c1 — log molar absorptivity (THF): 4.6 M⁻¹ cm⁻¹
NC(=O)CN1CCNC(=O)c2cccc(n2)C(=O)NCCN(CC(N)=O)CCN(CC(N)=O)CC1 — log β Pb(II) complex LPb(OH)2 (potentiometric titration; 25.0 °C, 0.1 M KNO3 ionic strength): 19.3
COc1cc2oc(-c3ccc(OC(F)(F)F)cc3)cc(=O)c2c(O)c1O — log protonation constant (spectrophotometric titration; methanol/water 80/20 w/w; 25.0 °C, ionic strength 0.1 M, 6-OH group): 9.47
COc1ccc(NC(=O)[C@H](CCCCN)NC(=O)c2cc(NC(=O)[C@H](CCCCN)NC(=O)c3cc(NC(=O)[C@H](CCCCN)NC(=O)c4cc(NC(C)=O)ccc4OC)ccc3OC)ccc2OC)cc1C(N)=O — log association constant (UV-vis λmax shift; TBS; pH 7.4, monomer-hexamer, K in M^-5): 21.5
Oc1cccc(-c2cccc(O)n2)n1.[Cl-].[Cl-].[Ru+2].c1cnc2c(c1)c1c(c3cccnc32)OCCO1.c1cnc2c(c1)c1c(c3cccnc32)OCCO1 — log D (octanol/buffer; acidic form): 0.9
C[O][Pt-2]1([Cl])([Cl])([O]C(=O)CCC(=O)OCCO)[NH2+]CC[N+]1(C)C — log kw (RP-HPLC, C18 column; methanol/aqueous formic acid; 25 °C, extrapolated to 100% water): 1.37 ± 0.06
COc1ccc(NC(=O)[C@H](CCCCN)NC(=O)c2cc(NC(=O)[C@H](CCCCN)NC(=O)c3cc(NC(=O)[C@H](CCCCN)NC(=O)c4cc(NC(=O)[C@@H](N)CCCCN)ccc4OC)ccc3OC)ccc2OC)cc1C(N)=O — log association constant (UV-vis λmax shift; Tris 50 mM; pH 7.4, monomer-hexamer global fit, added: NaCl 0.5 M): 24.1
COc1cc(-c2nc3ccccc3s2)cc(CN2CCN(CC(=O)OC(C)C)CCN(CC(=O)OC(C)C)CC2)c1O — log D (octanol/water; 64Cu complex): 0.91 ± 0.07
CCCCCCCC(=O)C(=O)C(O)CO (stereo not shown) — log air-water partition coefficient change (concentration not given; reference: isobutyl AI-2): 1.63
c1ccc(COc2cc3nc(c2)CNCCNCCNC3)cc1 — log K2 minus log K3 (pH-potentiometric titration; 298 K, I 0.15 M NaCl): 5.41
COCCOCCOCCOc1ccc(/C=C/c2c(I)c(C)c3n2[B-](F)(F)[N+]2=C(C)C(I)=C(C)C2=C3c2cc(OC)cc(OC)c2)cc1 — log molar absorptivity (DMSO): 4.17 M⁻¹ cm⁻¹
O=C1c2ccccc2NC(c2ccc([N+](=O)[O-])cc2)N1/N=C/c1ccc([N+](=O)[O-])cc1 (stereo not shown) — log k (RP-HPLC): 0.704
C[O][Pt-2]1([Cl])([Cl])([O]C(=O)CCC(=O)O)[NH2+]CC[N+]1(C)C — log kw (RP-HPLC, C18 column; methanol/aqueous formic acid; 25 °C, extrapolated to 100% water): 1 ± 0.01
CCCCCCCC[P+](c1cc(C)cc(C)c1)(c1cc(C)cc(C)c1)c1cc(C)cc(C)c1 — log P (shake-flask, HPLC; 1-octanol/water): 2.25 ± 0.05
O=C(O)CN(CCNC(=O)c1cccc(C(=O)NCCN(CC(=O)O)CC(=O)O)n1)CC(=O)O — log β (Pb2+ complex stability) (potentiometric titration; water, 0.1 M KNO3; 25.0 °C, complex species LPb(OH), added: Pb(NO3)2): 16.7
COc1ccc(-c2cc(=O)c3c(OC)c(O)c(OC)cc3o2)cc1 — log protonation constant (spectrophotometric titration; methanol/water 80/20 w/w; 25.0 °C, ionic strength 0.1 M, 6-OH group): 10.1
COC(=O)c1cc(NC(=O)[C@H](CCCCN)NC(=O)c2cc(NC(=O)[C@H](CCCCN)NC(=O)c3cc(NC(=O)[C@H](CCCCN)NC(=O)c4cc(NC(=O)[C@@H](N)CCCCN)ccc4OC)ccc3OC)ccc2OC)ccc1OC — log association constant (UV-vis λmax shift; TBS; pH 7.4, monomer-hexamer, K in M^-5): 17.9
O=c1c(O)cccn1CCCN1CCN(CCCn2cccc(O)c2=O)CC1 — log proton dissociation constant (spectrophotometric titration; 25 °C, Ka3, ionic strength 0.10 M): -7.94 ± 0.05
C[N+]1(C)CC[NH2+][Pt-2]1([OH])([Cl])([Cl])[O]C(=O)CCC(=O)O — log kw (RP-HPLC, C18 column; methanol/aqueous formic acid; 25 °C, extrapolated to 100% water): 0.46 ± 0.03
COc1cc(OC)cc(C2=C3C(C)=C(I)C(C)=[N+]3[B-](F)(F)n3c(/C=C/c4cccs4)c(I)c(C)c32)c1 — log molar absorptivity (dichloromethane): 4.08 M⁻¹ cm⁻¹
CCNC(=O)C1OC(n2cnc3c(NC(CC)CC)nc(NCCNC(=O)Nc4cc[n+](C)cc4)nc32)C(O)C1O (stereo not shown) — log kIAM (IAM chromatography; pH 7.4): 2.42
O=C(/C=C/c1ccc(O)c(O)c1)NCCCCCCCC[P+](c1ccccc1)(c1ccccc1)c1ccccc1 — log Kd (derivative spectrophotometry; DMPC membranes; pH 7.4): 3.34 ± 0.02
Br.Br.O=c1c(O)cccn1CCN1CCN(CCn2cccc(O)c2=O)CC1 — log Ka2 (spectrophotometric titration; 25 °C, ligand protonation, ionic strength 0.10 M): -6.1 ± 0.1
Oc1ccc2nc1CNCCNCCNC2 — log K4 (pH-potentiometric titration; protonation constant, I 0.15 M NaCl, 298 K): 2.17
Br.Br.Br.O=c1c(O)cccn1CCN1CCN(CCn2cccc(O)c2=O)CCN(CCn2cccc(O)c2=O)CC1 — log Ka2 (spectrophotometric titration; 25 °C, ligand protonation, ionic strength 0.10 M): -5.7 ± 0.1
Oc1cccc(-c2cccc(O)n2)n1.[Cl-].[Cl-].[Ru+2].c1cnc2c(c1)ccc1cccnc12.c1cnc2c(c1)ccc1cccnc12 — log D (octanol/buffer; acidic form): 0.2
FC(F)(F)c1ccnc(-c2cc(C(F)(F)F)ccn2)c1.FC(F)(F)c1ccnc(-c2cc(C(F)(F)F)ccn2)c1.[Cl-].[Cl-].[Ru+2].c1cnc2c(c1)c1nc[nH]c1c1cccnc12 — log D octanol/water (shake-flask; 1-octanol/phosphate buffer; pH 7.4, chloride salt): negative
CCNC(=O)C1OC(n2cnc3c(N)nc(NCCNC(=O)Nc4ccncc4)nc32)C(O)C1O (stereo not shown) — log kIAM (IAM chromatography; pH 7.4): 0.51
C[S+](C)([O-])[Pt-2]([Cl])([Cl])[N+](=Cc1ccc[nH]1)Cc1ccccc1 — log P (shake-flask; n-octanol/water): 1.307 ± 0.0082
COCCOCCOCCOc1ccc(/C=C/C2=[N+]3C(=C(c4cc(OC)cc(OC)c4)c4c(C)c(I)c(/C=C/c5ccc(OCCOCCOCCOC)cc5)n4[B-]3(F)F)C(C)=C2I)cc1 — log molar absorptivity (dichloromethane): 4.75 M⁻¹ cm⁻¹
Oc1cc2nc(c1)CNCc1cc(O)cc(n1)CNC2 — log K1 (potentiometric titration; 0.15 M NaCl; 298 K, protonation constant): 11.3
NCC(=O)N1CCC[C@H]1C(=O)N1C[C@H](O)C[C@H]1C(=O)O — log beta (potentiometric titration; 37 °C, MAH-3 complex, added: Fe(III)): 0.36

Excerpt of the above:
COc1cc2oc(-c3ccc(OC(F)(F)F)cc3)cc(=O)c2c(O)c1O — log protonation constant (spectrophotometric titration; methanol/water 80/20 w/w; 25.0 °C, ionic strength 0.1 M, 6-OH group): 9.47
O=C1c2ccccc2NC(c2ccc([N+](=O)[O-])cc2)N1/N=C/c1ccc([N+](=O)[O-])cc1 (stereo not shown) — log k (RP-HPLC): 0.704
CCNC(=O)C1OC(n2cnc3c(NC(CC)CC)nc(NCCNC(=O)Nc4cc[n+](C)cc4)nc32)C(O)C1O (stereo not shown) — log kIAM (IAM chromatography; pH 7.4): 2.42
c1ccc(COc2cc3nc(c2)CNCCNCCNC3)cc1 — log K2 minus log K3 (pH-potentiometric titration; 298 K, I 0.15 M NaCl): 5.41
C[O][Pt-2]1([Cl])([Cl])([O]C(=O)CCC(=O)OCCO)[NH2+]CC[N+]1(C)C — log kw (RP-HPLC, C18 column; methanol/aqueous formic acid; 25 °C, extrapolated to 100% water): 1.37 ± 0.06
O=C(/C=C/c1ccc(O)c(O)c1)NCCCCCCCC[P+](c1ccccc1)(c1ccccc1)c1ccccc1 — log Kd (derivative spectrophotometry; DMPC membranes; pH 7.4): 3.34 ± 0.02
